{"data": "Experimental data of several laboratories", "CES1": "Liver carboxylesterase 1 (CES1, Homo sapiens, UniProt P23141)", "Gamma carbonic anhydrase": "Gamma carbonic anhydrase (Vibrio cholerae, UniProt Q9KVT1)", "Cnr1": "Cannabinoid receptor 1 (Cnr1, Mus musculus, UniProt P47746)", "Oprm1": "Mu-type opioid receptor (Oprm1, Mus musculus, UniProt P42866)", "Tmem97": "Sigma intracellular receptor 2 (Tmem97, Mus musculus, UniProt Q8VD00)", "note": "Lines come from different studies, so protocols differ. ± marks the error that the study gave.", "sequence of UniProt P42866 (whole entry, looked up)": "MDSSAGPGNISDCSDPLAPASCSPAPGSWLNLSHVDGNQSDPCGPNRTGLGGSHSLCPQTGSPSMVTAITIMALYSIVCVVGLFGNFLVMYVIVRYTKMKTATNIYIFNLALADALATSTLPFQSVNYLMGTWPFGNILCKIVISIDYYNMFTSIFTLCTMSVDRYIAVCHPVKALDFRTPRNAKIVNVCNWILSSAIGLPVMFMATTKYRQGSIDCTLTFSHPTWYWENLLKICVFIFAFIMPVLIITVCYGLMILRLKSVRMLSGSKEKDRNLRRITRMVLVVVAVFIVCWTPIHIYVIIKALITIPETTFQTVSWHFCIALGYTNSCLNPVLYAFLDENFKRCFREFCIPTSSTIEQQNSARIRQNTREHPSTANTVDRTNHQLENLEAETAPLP", "sequence of UniProt Q8VD00 (whole entry, looked up)": "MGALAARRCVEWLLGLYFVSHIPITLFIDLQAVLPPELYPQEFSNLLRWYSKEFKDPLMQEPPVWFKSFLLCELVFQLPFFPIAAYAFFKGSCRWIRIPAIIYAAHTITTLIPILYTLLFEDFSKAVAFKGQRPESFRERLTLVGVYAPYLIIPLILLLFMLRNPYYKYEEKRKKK", "sequence of UniProt P23141 (whole entry, looked up)": "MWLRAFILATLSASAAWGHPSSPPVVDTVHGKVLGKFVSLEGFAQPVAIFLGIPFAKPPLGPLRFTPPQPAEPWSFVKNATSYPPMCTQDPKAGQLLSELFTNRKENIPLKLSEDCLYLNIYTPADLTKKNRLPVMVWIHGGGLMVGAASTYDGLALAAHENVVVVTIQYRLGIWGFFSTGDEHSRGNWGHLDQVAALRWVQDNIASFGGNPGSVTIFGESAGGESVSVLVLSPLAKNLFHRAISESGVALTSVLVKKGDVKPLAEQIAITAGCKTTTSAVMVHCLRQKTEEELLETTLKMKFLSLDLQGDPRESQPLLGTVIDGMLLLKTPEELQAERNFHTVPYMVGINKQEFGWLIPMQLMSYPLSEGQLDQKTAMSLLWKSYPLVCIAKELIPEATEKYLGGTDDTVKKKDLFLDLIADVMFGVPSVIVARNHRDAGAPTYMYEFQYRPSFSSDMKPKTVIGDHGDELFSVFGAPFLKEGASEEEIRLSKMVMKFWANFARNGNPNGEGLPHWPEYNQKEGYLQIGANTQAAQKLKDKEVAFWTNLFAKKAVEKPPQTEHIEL", "sequence of UniProt P47746 (whole entry, looked up)": "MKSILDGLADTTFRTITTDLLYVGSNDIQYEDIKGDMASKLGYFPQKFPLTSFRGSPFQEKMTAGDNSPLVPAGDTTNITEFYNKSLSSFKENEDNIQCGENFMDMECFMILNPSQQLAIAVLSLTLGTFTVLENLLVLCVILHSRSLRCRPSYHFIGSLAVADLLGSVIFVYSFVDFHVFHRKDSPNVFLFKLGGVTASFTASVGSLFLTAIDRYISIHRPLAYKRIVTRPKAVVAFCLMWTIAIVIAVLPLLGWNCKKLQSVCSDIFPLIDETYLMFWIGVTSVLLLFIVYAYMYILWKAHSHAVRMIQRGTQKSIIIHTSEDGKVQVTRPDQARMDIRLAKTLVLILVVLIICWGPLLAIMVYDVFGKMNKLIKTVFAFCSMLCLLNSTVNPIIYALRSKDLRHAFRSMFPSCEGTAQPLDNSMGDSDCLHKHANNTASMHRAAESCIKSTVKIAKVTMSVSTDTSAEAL", "sequence of UniProt Q9JI35 (whole entry, looked up)": "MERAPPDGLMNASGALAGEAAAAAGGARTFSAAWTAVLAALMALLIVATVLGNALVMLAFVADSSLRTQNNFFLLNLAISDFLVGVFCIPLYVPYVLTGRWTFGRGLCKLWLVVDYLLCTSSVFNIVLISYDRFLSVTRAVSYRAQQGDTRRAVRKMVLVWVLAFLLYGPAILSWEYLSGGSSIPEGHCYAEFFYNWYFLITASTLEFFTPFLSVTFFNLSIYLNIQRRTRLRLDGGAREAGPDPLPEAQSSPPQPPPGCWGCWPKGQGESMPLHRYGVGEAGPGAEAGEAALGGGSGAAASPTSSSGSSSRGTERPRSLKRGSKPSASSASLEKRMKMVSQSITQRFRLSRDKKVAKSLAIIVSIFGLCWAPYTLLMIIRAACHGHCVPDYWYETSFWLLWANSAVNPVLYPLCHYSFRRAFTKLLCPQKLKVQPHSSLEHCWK", "sequence of UniProt Q01959 (whole entry, looked up)": "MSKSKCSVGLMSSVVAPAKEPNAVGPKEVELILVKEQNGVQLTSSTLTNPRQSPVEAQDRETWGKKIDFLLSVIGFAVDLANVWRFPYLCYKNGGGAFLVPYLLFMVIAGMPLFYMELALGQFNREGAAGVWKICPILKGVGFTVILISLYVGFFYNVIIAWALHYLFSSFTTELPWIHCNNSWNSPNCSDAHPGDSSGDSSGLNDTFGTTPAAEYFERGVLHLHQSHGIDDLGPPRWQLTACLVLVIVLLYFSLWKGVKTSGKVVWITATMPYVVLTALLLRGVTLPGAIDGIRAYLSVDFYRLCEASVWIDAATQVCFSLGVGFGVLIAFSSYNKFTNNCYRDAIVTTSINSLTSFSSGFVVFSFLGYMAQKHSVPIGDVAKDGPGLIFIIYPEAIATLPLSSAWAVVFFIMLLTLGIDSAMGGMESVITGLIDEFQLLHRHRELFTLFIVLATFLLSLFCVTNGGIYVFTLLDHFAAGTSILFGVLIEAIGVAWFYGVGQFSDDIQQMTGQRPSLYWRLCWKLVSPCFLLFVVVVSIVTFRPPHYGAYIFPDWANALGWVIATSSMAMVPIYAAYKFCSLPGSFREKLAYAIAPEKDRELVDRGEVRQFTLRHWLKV", "sequence of UniProt Q9R0C9 (whole entry, looked up)": "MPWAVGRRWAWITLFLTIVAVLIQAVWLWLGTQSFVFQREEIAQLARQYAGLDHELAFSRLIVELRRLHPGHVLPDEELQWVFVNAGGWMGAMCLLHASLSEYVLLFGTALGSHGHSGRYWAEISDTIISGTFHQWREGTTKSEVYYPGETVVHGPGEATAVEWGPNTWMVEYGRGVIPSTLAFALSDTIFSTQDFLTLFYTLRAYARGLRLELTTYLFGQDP", "sequence of UniProt P32297 (whole entry, looked up)": "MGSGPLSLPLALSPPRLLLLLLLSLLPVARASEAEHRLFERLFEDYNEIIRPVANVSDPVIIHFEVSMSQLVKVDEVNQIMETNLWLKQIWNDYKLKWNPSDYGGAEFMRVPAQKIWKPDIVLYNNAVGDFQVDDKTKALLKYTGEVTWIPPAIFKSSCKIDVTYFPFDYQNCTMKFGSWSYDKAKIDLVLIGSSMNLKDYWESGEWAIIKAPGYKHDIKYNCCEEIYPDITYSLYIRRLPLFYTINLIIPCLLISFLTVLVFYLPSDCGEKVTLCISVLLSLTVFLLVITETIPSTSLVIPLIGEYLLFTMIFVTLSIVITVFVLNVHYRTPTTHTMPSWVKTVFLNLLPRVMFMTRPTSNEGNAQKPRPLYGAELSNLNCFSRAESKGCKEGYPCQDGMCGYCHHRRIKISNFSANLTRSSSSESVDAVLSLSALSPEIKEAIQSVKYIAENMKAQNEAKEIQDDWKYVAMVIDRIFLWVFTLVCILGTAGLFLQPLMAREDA", "sequence of UniProt P30926 (whole entry, looked up)": "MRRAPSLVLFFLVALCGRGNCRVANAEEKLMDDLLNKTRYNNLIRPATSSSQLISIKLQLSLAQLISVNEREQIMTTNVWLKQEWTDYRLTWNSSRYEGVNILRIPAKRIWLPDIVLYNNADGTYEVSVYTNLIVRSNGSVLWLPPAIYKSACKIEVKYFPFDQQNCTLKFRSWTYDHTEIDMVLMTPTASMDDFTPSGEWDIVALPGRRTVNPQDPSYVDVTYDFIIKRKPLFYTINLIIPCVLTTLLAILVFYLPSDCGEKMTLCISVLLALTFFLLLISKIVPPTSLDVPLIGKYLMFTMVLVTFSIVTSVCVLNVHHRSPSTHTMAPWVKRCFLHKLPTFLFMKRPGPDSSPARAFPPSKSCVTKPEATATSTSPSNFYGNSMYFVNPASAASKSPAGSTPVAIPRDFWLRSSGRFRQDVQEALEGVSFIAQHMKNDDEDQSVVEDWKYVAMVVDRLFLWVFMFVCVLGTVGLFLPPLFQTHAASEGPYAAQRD", "sequence of UniProt P41146 (whole entry, looked up)": "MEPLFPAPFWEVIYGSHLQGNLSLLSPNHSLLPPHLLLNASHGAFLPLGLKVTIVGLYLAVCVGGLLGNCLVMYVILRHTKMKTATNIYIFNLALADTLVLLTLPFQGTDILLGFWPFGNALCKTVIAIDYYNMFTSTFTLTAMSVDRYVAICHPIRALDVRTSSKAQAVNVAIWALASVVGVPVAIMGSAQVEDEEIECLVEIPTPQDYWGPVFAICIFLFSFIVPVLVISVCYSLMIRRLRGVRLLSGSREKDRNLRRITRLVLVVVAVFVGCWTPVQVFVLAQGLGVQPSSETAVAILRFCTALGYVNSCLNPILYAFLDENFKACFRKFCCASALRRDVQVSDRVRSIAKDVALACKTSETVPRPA", "sequence of UniProt P07550 (whole entry, looked up)": "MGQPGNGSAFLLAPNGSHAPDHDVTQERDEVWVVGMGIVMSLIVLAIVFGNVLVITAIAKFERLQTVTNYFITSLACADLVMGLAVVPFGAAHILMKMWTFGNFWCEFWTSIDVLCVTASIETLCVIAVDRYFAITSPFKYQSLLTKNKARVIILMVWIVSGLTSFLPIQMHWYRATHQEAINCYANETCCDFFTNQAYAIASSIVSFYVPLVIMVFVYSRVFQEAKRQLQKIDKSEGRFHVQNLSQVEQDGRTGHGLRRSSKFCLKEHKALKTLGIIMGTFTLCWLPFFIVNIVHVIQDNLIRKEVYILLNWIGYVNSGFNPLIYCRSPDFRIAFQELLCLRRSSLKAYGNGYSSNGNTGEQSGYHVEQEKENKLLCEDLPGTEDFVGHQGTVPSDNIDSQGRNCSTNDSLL", "sequence of UniProt O55242 (whole entry, looked up)": "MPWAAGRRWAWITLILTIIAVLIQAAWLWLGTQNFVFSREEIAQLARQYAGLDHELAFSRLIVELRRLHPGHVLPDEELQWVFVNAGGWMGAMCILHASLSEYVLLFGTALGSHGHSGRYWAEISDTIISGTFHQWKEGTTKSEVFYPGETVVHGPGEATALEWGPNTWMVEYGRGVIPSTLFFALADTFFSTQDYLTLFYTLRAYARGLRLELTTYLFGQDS"}
{"Molecule": "C=C[C@H]1CN2CCc3c([nH]c4cccc(OC)c34)[C@@H]2C[C@@H]1/C(=C\\OC)C(=O)OC", "target": "CES1", "assay": "enzyme activity, inhibitor", "Ki": "26.1 µM"}
{"Molecule": "NS(=O)(=O)CCCn1cc(COc2ccccc2)nn1", "target": "Gamma carbonic anhydrase", "assay": "inhibitor", "Ki": "37.8 µM"}
{"Molecule": "CNC(C)C(=O)c1ccc(F)cc1 (stereo not drawn)", "target": "Synaptic vesicular amine transporter (SLC18A2, Homo sapiens, UniProt Q05940)", "assay": "ligand displacement, radioligand", "conditions": "cell membranes", "Ki": "> 1000 µM"}
{"Molecule": "O=C(c1cccc2ccccc12)c1cn(CCCCO)c2ccccc12", "target": "Cnr1", "assay": "ligand displacement, radioligand", "conditions": "cell membranes", "Ki": "0.224 µM"}
{"Molecule": "COc1ccc(OCc2cn(CCCS(N)(=O)=O)nn2)cc1", "target": "Gamma carbonic anhydrase", "assay": "inhibitor", "Ki": "25.6 µM"}
{"Molecule": "[Cl-].[Cl-].[Mg+2]", "target": "ATP phosphoribosyltransferase (Mycobacterium tuberculosis, UniProt P9WMN1)", "assay": "enzyme activity, inhibitor", "conditions": "200 mM KCl, added: saturating substrates", "Ki": "23300 ± 8600 µM"}
{"Molecule": "CC[C@@H]1CN2CCc3c([nH]c4cccc(OC)c34)[C@H]2C[C@@H]1/C(=C\\OC)C(=O)OC", "target": "CES1", "assay": "reversible inhibitor", "conditions": "added: oseltamivir substrate", "Ki": "8.58 ± 3.09 µM"}
{"Molecule": "NS(=O)(=O)CCCn1cc(CNC(=O)Nc2ccc(F)cc2)nn1", "target": "Gamma carbonic anhydrase", "assay": "inhibitor", "Ki": "12.6 µM"}
{"Molecule": "N#Cc1cc(C(=O)N[C@@H]2CC[C@@]3(O)[C@H]4Cc5cccc6c5[C@@]3(CCN4CC3CC3)[C@H]2O6)ccn1", "target": "Oprm1", "assay": "ligand displacement, radioligand", "conditions": "cell membranes", "Ki": "0.0583 µM"}
{"Molecule": "CCCCn1cc(C(=O)c2cccc3ccccc23)c2c(O)cccc21", "target": "Cnr1", "assay": "ligand displacement, radioligand", "conditions": "cell membranes", "Ki": "0.0141 µM"}
{"Molecule": "C=CCN1CCC2(C)c3cc(O)ccc3CC1C2C (single isomer, unassigned; (+))", "target": "Sigma non-opioid intracellular receptor 1 (Sigmar1, Rattus norvegicus, UniProt Q9R0C9)", "assay": "radioligand binding", "system": "rat liver membranes", "conditions": "added: [3H](+)-pentazocine 5 nM", "Ki": "0.288 ± 0.024 µM"}
{"Molecule": "C=CCN1CCC2(C)c3cc(O)ccc3CC1C2C (single isomer, unassigned; (+))", "target": "Tmem97", "assay": "ligand displacement, radioligand", "conditions": "cell membranes", "Ki": "8.1 µM"}
{"Molecule": "NS(=O)(=O)CCCCn1cc(COc2ccccc2)nn1", "target": "Gamma carbonic anhydrase", "assay": "inhibitor", "Ki": "43.5 µM"}
{"Molecule": "COc1cc(C(=O)N[C@@H]2CC[C@@]3(O)[C@H]4Cc5cccc6c5[C@@]3(CCN4CC3CC3)[C@H]2O6)ccn1", "target": "Oprm1", "assay": "ligand displacement, radioligand", "conditions": "cell membranes", "Ki": "0.0456 µM"}
{"Molecule": "Cc1ccc(NC(=O)NCc2cn(CCCS(N)(=O)=O)nn2)cc1", "target": "Gamma carbonic anhydrase", "assay": "inhibitor", "Ki": "10.9 µM"}
{"Molecule": "CCN(C(=O)[C@@H]1C=C2c3cccc4[nH]cc(c34)C[C@H]2N(C)C1)C1CC1", "target": "Histamine H3 receptor (Cavia porcellus, UniProt Q9JI35)", "Ki": "> 10 µM"}
{"Molecule": "NS(=O)(=O)CCCCn1cc(CNC(=O)Nc2ccc(F)cc2)nn1", "target": "Gamma carbonic anhydrase", "assay": "inhibitor", "Ki": "20.6 µM"}
{"Molecule": "CN[C@@H](C)C/C=C/c1cncc(OC)c1", "target": "Neuronal acetylcholine receptor; alpha3/beta4 (Homo sapiens, UniProt P30926+P32297)", "assay": "ligand displacement, radioligand", "conditions": "cell membranes", "Ki": "14 µM"}
{"Molecule": "C=CCN1CCC2(C)c3cc(O)ccc3CC1C2C (single isomer, unassigned; (-))", "target": "Sigma non-opioid intracellular receptor 1 (Sigmar1, Mus musculus, UniProt O55242)", "Ki": "2.15 ± 0.336 µM"}
{"Molecule": "CCN(CC)C(=O)[C@@H]1C=C2c3cccc4[nH]cc(c34)C[C@H]2N(C)C1", "target": "Sodium-dependent dopamine transporter (SLC6A3, Homo sapiens, UniProt Q01959)", "assay": "ligand displacement, radioligand", "Ki": "> 10 µM"}
{"Molecule": "O=C(N[C@@H]1CC[C@@]2(O)[C@H]3Cc4cccc5c4[C@@]2(CCN3CC2CC2)[C@H]1O5)c1ccnc(Cl)c1", "target": "Oprm1", "assay": "ligand displacement, radioligand", "conditions": "cell membranes", "Ki": "0.0188 µM"}
{"Molecule": "(−)-cocaine hydrochloride", "target": "Tmem97", "assay": "radioligand binding", "system": "mouse lung membranes", "conditions": "60 min, 25 °C, added: [3H]DTG 3.0 nM, (+)-pentazocine 500 nM", "Ki": "59.5 ± 7.21 µM"}
{"Molecule": "C[C@H]1CN(C2CCCCCCC2)CC[C@@]1(C)c1cccc(O)c1", "target": "Nociceptin receptor (OPRL1, Homo sapiens, UniProt P41146)", "assay": "ligand displacement, radioligand", "Ki": "> 10 µM"}
{"Molecule": "COc1ccc(C[C@H](NC[C@H](O)c2cc(O)cc(O)c2)C(C)C)cc1", "target": "Beta-2 adrenergic receptor (ADRB2, Homo sapiens, UniProt P07550)", "assay": "binding", "Ki": "no binding"}
{"note": "A few entries again:"}
{"Molecule": "CCN(CC)C(=O)[C@@H]1C=C2c3cccc4[nH]cc(c34)C[C@H]2N(C)C1", "target": "Sodium-dependent dopamine transporter (SLC6A3, Homo sapiens, UniProt Q01959)", "assay": "ligand displacement, radioligand", "Ki": "> 10 µM"}
{"Molecule": "C=C[C@H]1CN2CCc3c([nH]c4cccc(OC)c34)[C@@H]2C[C@@H]1/C(=C\\OC)C(=O)OC", "target": "CES1", "assay": "enzyme activity, inhibitor", "Ki": "26.1 µM"}
